# Experimental data from different studies.
# Compare with care: the assays were run in different laboratories.
# Organism: Pseudomonas aeruginosa
Compound,assay,system,conditions,scale,MIC
CC[C@H](C)[C@@H]1NC(=O)[C@H](CC(C)C)NC(=O)[C@@H](NC(=O)[C@H](CO)NC(=O)[C@H](CCCNC(=N)N)NC(=O)[C@@H](N)CO)CSSC[C@@H](C(=O)N[C@@H](CCC(N)=O)C(=O)N[C@@H](CCCNC(=N)N)C(=O)N[C@@H](CC(C)C)C(=O)N[C@@H](Cc2ccccc2)C(N)=O)NC(=O)[C@H](C(C)C)NC(=O)[C@H]([C@@H](C)CC)NC(=O)[C@H](CC(C)C)NC(=O)[C@@H](NC(=O)[C@H](CO)NC(=O)[C@H](CCCNC(=N)N)NC(=O)[C@@H](N)CO)CSSC[C@@H](C(=O)N[C@@H](CCC(N)=O)C(=O)N[C@@H](CCCNC(=N)N)C(=O)N[C@@H](CC(C)C)C(=O)N[C@@H](Cc2ccccc2)C(N)=O)NC(=O)[C@H](C(C)C)NC1=O,broth microdilution,ATCC 27853,,,> 100 µg/mL
CC(C)C[C@H](NC(=O)[C@@H]1CSCC(=O)N[C@@H](CCCCN)C(=O)N[C@@H](CC(C)C)C(=O)N[C@@H](CCCCN)C(=O)NCCCC[C@@H]2NC(=O)[C@H](CCCCN)NC(=O)[C@H](CC(C)C)NC(=O)[C@H](CCCCN)NC(=O)CSC[C@H](NC(=O)[C@H](CC(C)C)NC(=O)[C@H](CC(C)C)NC(=O)[C@H](CCCCN)NC2=O)C(=O)N[C@@H](CCCCN)C(=O)N[C@@H](CC(C)C)C(=O)N[C@@H](CCCCN)C(=O)N1)C(N)=O,,PAO1,18 h,,256 µg/mL
CC1C(=NOCc2cc(-c3ccc(Cl)cc3)no2)C(C)C(c2ccc(Br)cc2)OC1c1ccc(Br)cc1 (stereo not drawn),"microbial growth, broth dilution",MTCC741,24 h,,6.3 µg/mL
C[C@@](O)(C(F)F)[C@H](NC(=O)c1ccc(C#CC#CC2CC2)cc1)C(=O)NO,broth microdilution,"PAO1, CAMHB",,,0.122 µg/mL
CC[C@@H](C)[C@@H](NC(=O)[C@@H](C)NC(=O)[C@H](NC(=O)[C@@H](CC(=O)O)NC(=O)[C@@H](CCCCN)NC(=O)[C@@H](CO)NC(=O)[C@H](NC(=O)[C@@H](CC(N)=O)NC(=O)[C@@H](C)NC(=O)[C@H](NC(=O)[C@@H](CCC(=O)O)NC(=O)[C@@H](CCCCN)NC(=O)[C@H](NC(=O)[C@H](NC(=O)[C@@H](Cc1c[nH]cn1)NC(=O)[C@@H](CCCCN)NC(=O)[C@H](NC(=O)[C@@H](CCCCN)NC(=O)[C@@H](CCCCN)NC(=O)[C@H](NC(=O)[C@@H](CC(C)C)NC(=O)[C@@H](CCCCN)NC(=O)[C@@H](CC(N)=O)NC(=O)[C@@H](Cc1ccccc1)NC(=O)[C@@H](CCCNC(=N)N)NC(=O)[C@@H](CCCCN)NC(=O)[C@@H](CCCNC(=N)N)NC(=O)[C@@H](Cc1ccccc1)NC(=O)CN)C(C)C)C(C)C)[C@H](C)O)[C@H](C)CC)[C@H](C)O)C(C)C)C(C)C)C(=O)N[C@@H](C(=O)N[C@H](C)C(=O)NCC(=O)N[C@H](CO)C(=O)NCC(=O)N[C@@H](C(=O)N[C@H](C)C(=O)N[C@@H](C(=O)NCC(=O)N[C@H](C)C(=O)N[C@H](C)C(=O)N[C@H](CCSC)C(N)=O)C(C)C)C(C)C)C(C)C,broth microdilution,"ATCC 27853, CAMHB",,,32 µg/mL
CC(C)C[C@@H]1NC(=O)CSC[C@@H]2NC(=O)[C@H](CC(C)C)NC(=O)[C@H](CCCCN)NC(=O)[C@H](CCCCN)NC(=O)[C@H](CCCCNC(=O)[C@H](CCCCN)NC(=O)[C@H](CC(C)C)NC1=O)NC(=O)[C@H](CCCCN)NC(=O)[C@H](CC(C)C)NC(=O)[C@H](CC(C)C)NC(=O)CSC[C@@H](C(=O)N[C@@H](CCCCN)C(N)=O)NC(=O)[C@H](CC(C)C)NC(=O)[C@H](CC(C)C)NC(=O)[C@H](CC(C)C)NC2=O,,PAO1,18 h,,128 µg/mL
CCCCCCCCCCCCCc1cc(O)cc(O)c1,broth microdilution,PAO1 chloramphenicol-resistant,37 °C,,> 64 µg/mL
CC(=O)N[C@@H](Cc1c[nH]c2ccccc12)C(=O)NCCCCCCCCCCCC(=O)NCCCC[C@@H]1NC(=O)[C@H](CCCNC(=N)N)NC(=O)[C@H](CCCNC(=N)N)NC(=O)[C@H](CCCNC(=N)N)NC(=O)[C@H](CCCNC(=N)N)NC(=O)[C@H](CCCNC(=N)N)NC1=O,broth microdilution,PAO1,37 °C,,167 µg/mL
CC(C)C[C@@H]1NC(=O)[C@@H](CC(C)C)NC(=O)[C@H](CCN)NC(=O)[C@@H](NC(=O)[C@H](CCN)NC(=O)[C@@H](N)[C@@H](C)O)CCNC(=O)[C@H]([C@@H](C)O)NC(=O)[C@H](CCN)NC(=O)[C@H](CCN)NC1=O,broth microdilution,"NDM-1, CAMHB with polysorbate-80",16 h,,> 64 µg/mL
CC(C)[C@H](NC(=O)[C@H](CCCCN)NC(=O)[C@H](CCCNC(=N)N)NC(=O)CNC(=O)[C@H](C)NC(=O)[C@H](CC(N)=O)NC(=O)[C@H](CCCNC(=N)N)NC(=O)[C@@H](NC(=O)[C@H](CCCCN)NC(=O)[C@H](CC(=O)O)NC(=O)[C@@H](NC(=O)[C@@H](NC(=O)[C@H](CCCNC(=N)N)NC(=O)[C@H](CCCNC(=N)N)NC(=O)[C@H](Cc1c[nH]c2ccccc12)NC(=O)[C@H](Cc1c[nH]c2ccccc12)NC(=O)CN)[C@@H](C)O)C(C)C)C(C)C)C(=O)O,,CMCC 10104,"18 h, 37 °C",,> 256 µg/mL
COc1cc2c(=O)c(C(=O)NCCNCCO)cn(Cc3ccccc3)c2cc1OCc1cccc(Br)c1,,ATCC 27853,,≥80% growth inhibition,< 0.25 µg/mL
CC[C@@H](C)[C@@H](NC(=O)[C@@H](C)NC(=O)[C@@H](CCCCN)NC(=O)[C@@H](CC(C)C)NC(=O)[C@@H](C)NC(=O)[C@H](NC(=O)[C@@H](Cc1c[nH]cn1)NC(=O)[C@@H](CC(C)C)NC(=O)[C@H](NC(=O)[C@H](NC(=O)[C@@H](CCCCN)NC(=O)[C@@H](CCCCN)NC(=O)[C@@H](C)NC(=O)[C@@H](CO)NC(=O)[C@@H](CCCCN)NC(=O)[C@@H](Cc1ccccc1)NC(=O)[C@H](NC(=O)[C@@H](CCCCN)NC(=O)[C@@H](CC(C)C)NC(=O)[C@@H](Cc1ccccc1)NC(=O)[C@@H](CO)NC(=O)[C@@H](CCCCN)NC(=O)[C@@H](Cc1c[nH]c2ccccc12)NC(=O)[C@@H](CCCCN)NC(C)=O)[C@H](C)O)[C@H](C)O)C(C)C)[C@H](C)O)C(=O)N[C@H](CO)C(=O)N[C@H](CO)C(N)=O,broth microdilution,PA14,"24 h, 37 °C",,5.2 µM

# Some of these lines once more:
Compound,assay,system,conditions,scale,MIC
CCCCCCCCCCCCCc1cc(O)cc(O)c1,broth microdilution,PAO1 chloramphenicol-resistant,37 °C,,> 64 µg/mL
